Measurements of several laboratories.
Parts stem from different laboratories: compare values within a part only.

Block 1
Target: Sal-like protein 4, full length isoform A (SALL4, Homo sapiens, UniProt Q9UJQ4, residues 1-1053)
Chain of UniProt Q9UJQ4 (whole entry, looked up): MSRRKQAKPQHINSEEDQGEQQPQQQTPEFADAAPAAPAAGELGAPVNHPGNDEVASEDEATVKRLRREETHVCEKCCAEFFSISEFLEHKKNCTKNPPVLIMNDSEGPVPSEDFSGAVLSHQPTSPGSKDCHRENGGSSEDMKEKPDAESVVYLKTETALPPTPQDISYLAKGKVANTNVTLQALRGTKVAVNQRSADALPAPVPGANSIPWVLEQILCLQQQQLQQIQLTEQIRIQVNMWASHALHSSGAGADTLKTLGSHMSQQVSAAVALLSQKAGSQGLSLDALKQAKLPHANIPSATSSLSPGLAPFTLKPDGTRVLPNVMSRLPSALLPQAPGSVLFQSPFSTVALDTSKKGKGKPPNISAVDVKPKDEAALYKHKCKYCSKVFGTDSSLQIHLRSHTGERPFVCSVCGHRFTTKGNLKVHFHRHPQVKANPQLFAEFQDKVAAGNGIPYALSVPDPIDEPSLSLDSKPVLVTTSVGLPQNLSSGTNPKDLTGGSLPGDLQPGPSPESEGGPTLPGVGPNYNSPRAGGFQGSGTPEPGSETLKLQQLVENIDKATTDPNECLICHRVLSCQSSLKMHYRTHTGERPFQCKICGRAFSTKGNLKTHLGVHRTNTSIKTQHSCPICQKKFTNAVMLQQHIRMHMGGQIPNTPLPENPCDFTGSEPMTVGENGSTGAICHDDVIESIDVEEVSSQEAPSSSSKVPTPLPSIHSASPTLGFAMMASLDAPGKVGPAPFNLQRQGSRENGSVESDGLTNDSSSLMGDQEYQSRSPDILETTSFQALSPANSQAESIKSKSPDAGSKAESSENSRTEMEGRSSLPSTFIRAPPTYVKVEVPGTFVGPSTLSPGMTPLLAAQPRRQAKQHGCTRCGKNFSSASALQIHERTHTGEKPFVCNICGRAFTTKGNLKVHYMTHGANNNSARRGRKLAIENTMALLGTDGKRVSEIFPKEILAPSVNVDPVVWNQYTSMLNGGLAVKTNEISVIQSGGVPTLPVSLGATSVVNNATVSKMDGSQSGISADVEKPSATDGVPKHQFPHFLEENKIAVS
Technique: universal PBM
Molecule type: double-stranded DNA, one strand shown
Matrix: in vitro
Concentration: 600 nM
Notes: 8-mer, flanks averaged, mean of replicates
Reading: higher = stronger binding
| Sequence | E-score |
| --- | --- |
| ACAGATCT | -0.0118 |
| GATTCTCA | 0.101 |
| CAATGGCC | -0.235 |
| ACCGGATA | -0.0938 |
| ACCGGGCG | -0.374 |
| TCCTGACA | 0.0986 |
| AACTTGCC | -0.0476 |
| GGGCCGAC | -0.343 |
| GGCGTGAC | -0.266 |
| GTAAAAAA | 0.284 |
| AAAGCTAA | 0.133 |
| CTTCCCGC | -0.187 |
| GGAGCTAA | -0.156 |
| GCTGTTGA | 0.0314 |
| ACTGCCCT | -0.216 |
| CTTTGACA | 0.107 |
| CCCGAAAA | 0.122 |
| GCCTCCTA | -0.193 |

Block 2
Target: Centromere-binding protein 1, full length, N-terminal tag (CBF1, Saccharomyces cerevisiae, UniProt P17106, residues 1-351)
Chain of UniProt P17106 (whole entry, looked up): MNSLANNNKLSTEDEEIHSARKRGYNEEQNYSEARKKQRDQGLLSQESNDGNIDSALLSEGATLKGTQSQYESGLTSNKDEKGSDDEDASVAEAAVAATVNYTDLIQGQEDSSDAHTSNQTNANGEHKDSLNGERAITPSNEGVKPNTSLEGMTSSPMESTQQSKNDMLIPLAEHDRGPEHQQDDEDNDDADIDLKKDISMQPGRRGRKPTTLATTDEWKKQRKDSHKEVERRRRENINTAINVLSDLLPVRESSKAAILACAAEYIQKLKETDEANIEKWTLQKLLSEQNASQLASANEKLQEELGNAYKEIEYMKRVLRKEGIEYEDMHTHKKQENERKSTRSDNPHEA
Technique: protein-binding microarray
Molecule type: double-stranded DNA, one strand shown
Matrix: in vitro
Concentration: 0.8 µM
Notes: whole 60-bp probe, no competitor
Reading: higher = stronger binding
All sequences stand within: … GTCTTGATTCGCTTGACGCTGCTG
| Sequence | fluorescence intensity [a.u.] |
| --- | --- |
| GAACGTGCCCTTCATCAGATTACATCACGTGAATAG | 14700 |
| GAACAGAATTAACCCCACGCGGGCAGTCTGATATAG | 638 |
| CTACACAAATTTTGTCACCTGTGCTTTGCTAGATTC | 650 |
| GAACGACAATTTTGTCACGATTGTTATCATTTTTAG | 586 |
| GAAAATGTCCCGGAAAACGTGGGTGTGCGGTGATAG | 563 |
| GAAAATTATCCAAGAAACGTGCGGCAGGATAATTAG | 595 |
| CTAATCCAGAATTCACTGATGATGAGCTTATGGTTC | 505 |
| GAACAGATGTCTGGTCTGGTGGTATCGTATACATAG | 558 |
| TGTACGAAGCTATCCCACGTACGTATAGTAGTTAGG | 517 |
| CTAAGATTCTTGAGCCACCAGACGCTAAATAATTTC | 533 |
| CTATGGGTAGTTTATAACGTGTGTGCTCTCTCTTTC | 521 |
| CTAAAATCTGGCAGTAACATCAATTAATGATACTTC | 527 |
| CTATATTCATTTTTCCTCGTGTTGTTATAACGATTC | 630 |
| GAACCTTTCTCCGGTCACATGAAGCCTCTGTATTAG | 1910 |
| GAATCGGTAATTCTACATGTGTCTGATCAAGGTTAG | 603 |
| CCTAACTACTATATGCACGAAAAATAGCTTCGTACA | 514 |
| GAACTACACAGCTATCATATGAGGGGAGTGATCTAG | 553 |
| CTACAATCGGAAAAGCACCTGAGGCAAACAAAATTC | 521 |
| CTATTTTCCCATTGTCACGAGAACATAATTGTTTTC | 1870 |
| CTAAAGGACCCCCATATCGTGATAATCATTGATTTC | 566 |
| GAAGTTTAATTCAGACACGCAATATATGTAGATTAG | 548 |
| CCTAACTACTATATACACACGCAATAGCTTCGTACA | 521 |
| CCTAACTACTATAATGTCGTCATATAGCTTCGTACA | 540 |
| CTAAGCGTAATTGATTTCGTGATGGTTCGATCCTTC | 538 |
| CTAGGATGTCTGCGATTGGTGATGCTAAGAACTTTC | 522 |

Block 3
Target: Fragile X messenger ribonucleoprotein 1, C-terminal low-complexity region (Fmr1, Mus musculus, UniProt P35922)
Technique: RNA Bind-n-Seq
Molecule type: RNA
Matrix: in vitro
Concentration: 200 nM
Notes: whole 134-nt RNA, ends assumed
With: 150 mM KCl
Reference: input library
Reading: higher = stronger binding
All sequences stand within: GGGAGUUCUACAGUCCGACGAUC … UGGAAUUCUCGGGUGUCAAGG
| Sequence | log2 enrichment |
| --- | --- |
| UAACUUUAGAGGAGGAUCUGAUGGAUAUGGCUGUGGACGUGGAUUUGGGGAUGGCUAUAAUGGGUAUGGAGGAGGACCUGGAGGUGGCAA | 0.368 |
| AGUCCUGUGCUACACAUCGUAUGUACCGAAUCGGGCCCCCGGCCCCCGGCCCCCGGGGAAAGUAUUAUGUUACGCCGUUCGGAUCUGCAC | -0.429 |
| GUCCUGUGCUACACAUCGUAUGUACCGAAUCGGCCCCCCGGCCCCCCGGGGCCCCCCGGAAAGUAUUAUGUUACGCCGUUCGGAUCUGCA | -0.173 |
| CCUGUGCUACACAUCGUAUGUACCGAAUCGGGGAAAAAAAGGGGAAAAAAAGGGGUGGGGAAAGUAUUAUGUUACGCCGUUCGGAUCUGC | 0.293 |
| GCAGGAAGUAAAGACAAAUGGAAAUGCUUCGGAUAGUGGCAGGGGUGGGGGUUGCUAAGGAAAGGGUGGGAUGGGAGUGGGUAAAGAGUU | 0.428 |
| ACCAUGCAGGUGGGCAUCUUUGGGAAGUGGGGCAAGGGGGGGAUAGGGAGGGGGGUAACUCUUUGGGAACAGGUGGUCCCAGGUCGUUUC | 0.775 |
| GCAGGAAGUAAAAACAAAUGGAAAUGCUUCGGAUAGUGGCAGGGGUGGGGGUUCCUAAGGAAAGGGUGGGAUGGGAGUGGGUAAAGAGUU | 0.841 |
| CCCAGACAACACGCACCCACACAGACACAGAGGGAAGGGGUUGGGAUGGGGACAGGGUGCACAGCAGGGCGGGGUAGGACCCCAGCCCCU | 1.35 |
| UGGGAGGUGGAUUUUGUUUAUUUUUUUAGCUCGUUUCCAGGGGUGGGAAUUUUUUUUUAAUAUGUGUCAUGAAUAAAGUUGUUUUUGAAA | 0.359 |
| CACAGACAACACGCACCCACACAGACACAGAGGGAAGGGGUCGGGAUGGGGACAGGGUGCACAGCAGGGCGGGGUAGGACCCCAGCCCCU | 1.21 |
| UGGCCCUGGUGGCAUGCGGGGAGGAAGAGGUGGCCUCAUGGAUCGUGGUGGUCCCGGUGGAAUGUUCAGAGGUGGCCGUGUUGGAGACAG | -0.231 |
| UCCUGUGCUACACAUCGUAUGUACCGAAUCGGAAAAAAAGGAAAAAAAGGGAAAAAAAGGAAAGUAUUAUGUUACGCCGUUCGGAUCUGC | -0.171 |
| UAACUUUAGAGGAGGAUCUGAUGGAUAUGGCAGUGGACGUGGAUUUGAGGAUGGCUAUAAUGGGUAUGGAGGAGGACCUGGAGGUGGCAA | 0.332 |
| UUGAUGCCCCAGAUGUGGAUGUUCAUGGCCCAGACUGGCACCUGAAGAUGCCUAAGAUGAAAAUGCCCAAGUUCAGCAUGCCUGGCUUCA | 0.289 |

Block 4
Target: RNA binding protein fox-1 homolog 2, RRM domain, GST-SBP tag (RBFOX2, Homo sapiens, UniProt O43251-10, residues 100-194)
Technique: RNA Bind-n-Seq
Molecule type: RNA
Matrix: in vitro
Concentration: 365 nM
Notes: natural RNA segment, single round, ends assumed
Reference: no-protein control
Reading: higher = stronger binding
All sequences stand within: GGGAGUUCUACAGUCCGACGAUC … UGGAAUUCUCGGGUGCCAA
Target sequence (chain): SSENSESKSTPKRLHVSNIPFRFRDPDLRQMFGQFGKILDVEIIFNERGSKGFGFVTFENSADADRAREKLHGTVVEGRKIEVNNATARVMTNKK
| Sequence | RBNS enrichment (R) |
| --- | --- |
| CAAAUGUUCUGAGACCUUUGGGGCCAUUUAUUACUUUGUACAAGCCCAAUAAUCCUCUCUUUUCUGCCAAGUCCUCAACCCAGAAAUGUAGGCUUCUGUGCACCACACGG | 0.399 |
| CAGACUAUAAUAUUCAUAUUUAAACAAAGCAAUUUUUUUUAUUACUAAACAAGGUUUUUAUGAAUAAUAGCAUUGAUAUAUAUAUAUUAUAUAUCACCCUUUAGAUCUUG | 0.664 |
| GGCUCACGUGGCCCAGGCUGGUGCGCCCGCUGUCUCGGUAAGGGGCGGGUUGGUGUGUUUUCCCCUUGUGUACCAGAGCACAUUCCUUAGGGGACGGCUUUGGGGGUCCC | 0.247 |
| AAACUUAGAAGAAUUCUAUGUUCUGAAAUGCACACUUUUAGAAUGUUUUUCUUUGAAAACAGGCUAAUAGUUUUUUCUUUUUUUGACAAAGUUUCAGCUCCUCUUUAAAG | 0.504 |
| CCUGUUAAAUGUCAACCUAGACCUGGACCUGGGUGGGAGGAAACUGUAGCCUGAGUGUCCACAGGGACACACGUGAGCCACAGGGCUAGAAGCACAGGCCCGUCACCCCA | 0.3 |
| UUGCUGCAGAUGGAACAAAUGCCGCCUGGCUUUGUAUUCCCCUUUAGGAUUCUAUUACAUAUGCAAUUUGAGGUCUAACUUGUCCCUUUCCCUGCCAGCCAACCCCCACC | 0.51 |
| CAGGCCUCCCUGCUGUGCUUUAACACAGGCAGAAGAGGUUCAUGGCAAUAUAAUAGUCAAUGAACUUUCAGUUUAAAUUGUGUACAUUUUUAAAUUGUAAGAUUUUUACU | 0.429 |
| CGACUGUACAUCUGCAGUCCCUCACUCAGGAGAUGGGAGCAGGAGGAUCAGGAGUUCAAGGUCAUCCUUGGCUACAUAGGGGGUUCAAAGCCAGCCUGGGCCCAAUGAAA | 0.474 |
| UUUGACCCCAGAUGUCCAGAUGUUUUGCAGUGUCUGGGGCUUGUGUCCCUUGUUCUUCGUUCUGCUGCUUUGCCCCUUCCUUCCCUCUUCAUGGAGUGAUUAUGUUGAUA | 1.15 |
| UGGAGACCUCCUCUGGCCAGGGGGCCACUGGUGUCCUCACUGUGUUGGGAUUCUGUUAUCCCUGAUACCCCAGGAGCCUAUUGACCUGACUGAGAAUAGUGACAUGUCUG | 0.485 |
| UGGGGCGCUGCUCUCCCAGGUCCUGGUCAGACUCAGCUCCAUAGCUCUUGGAGGCUUUCCCUGGAUUCCCUGAGUACAGUGUUAAAAGGCCUAACCACACAGCCACCUGC | 0.45 |
| CUUAACAGAUGCAGUCAGCAGUUUCUGGGCACUUCUCUCAGUAGGUGCCUCAUGCUGACUUCUCCAGUAGGGUUUCAGGACAAACUACCAAGGAAUUGCCUCAGCCUCCU | 0.332 |

Block 5
Target: Histone acetyltransferase KAT6A, winged helix 1, GST fusion (KAT6A, Homo sapiens, UniProt Q92794, residues 1-85)
Technique: protein binding microarray
Molecule type: double-stranded DNA, one strand shown
Matrix: in vitro
Concentration: not given
Notes: 8-mer, flanks averaged, mean of 2 arrays, mostly near background
Reference: not given
Reading: higher = stronger binding
Residues (chain): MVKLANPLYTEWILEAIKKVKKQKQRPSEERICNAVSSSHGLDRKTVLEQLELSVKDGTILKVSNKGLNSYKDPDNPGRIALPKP
| Sequence | E-score |
| --- | --- |
| CACCAGTA | -0.165 |
| ATGAGGTA | -0.323 |
| CTCCCAGC | -0.13 |
| AACCTAAG | -0.0356 |
| AGAAGCCC | 0.0592 |
| AAGCCACG | -0.0237 |
| ACCTAGGA | -0.105 |
| AATAAGGA | -0.215 |
| CGTACTTA | 0.13 |
| AAAGCACG | -0.148 |
| AATTTCTA | -0.148 |
| AATGACTG | -0.268 |
| CCCTTTAA | -0.000645 |
| CCTAGGCG | 0.0654 |
| CGGATCCA | 0.073 |
| CCTCCCCC | 0.0575 |
| CGGACTTA | 0.038 |
| TCACCTAA | -0.107 |

Some of these lines once more (block 1):
| Sequence | E-score |
| --- | --- |
| CAATGGCC | -0.235 |
| ACCGGATA | -0.0938 |
| ACCGGGCG | -0.374 |
| TCCTGACA | 0.0986 |
| AACTTGCC | -0.0476 |
| GGGCCGAC | -0.343 |
| GGCGTGAC | -0.266 |
| GTAAAAAA | 0.284 |
| AAAGCTAA | 0.133 |
| CTTCCCGC | -0.187 |
| GGAGCTAA | -0.156 |
| GCTGTTGA | 0.0314 |
| ACTGCCCT | -0.216 |
